Experimental data gathered from unrelated publications.
Every numbered part comes from another study and shows a few of its results, in no order.
UniProt O96013, sequence (whole entry, looked up): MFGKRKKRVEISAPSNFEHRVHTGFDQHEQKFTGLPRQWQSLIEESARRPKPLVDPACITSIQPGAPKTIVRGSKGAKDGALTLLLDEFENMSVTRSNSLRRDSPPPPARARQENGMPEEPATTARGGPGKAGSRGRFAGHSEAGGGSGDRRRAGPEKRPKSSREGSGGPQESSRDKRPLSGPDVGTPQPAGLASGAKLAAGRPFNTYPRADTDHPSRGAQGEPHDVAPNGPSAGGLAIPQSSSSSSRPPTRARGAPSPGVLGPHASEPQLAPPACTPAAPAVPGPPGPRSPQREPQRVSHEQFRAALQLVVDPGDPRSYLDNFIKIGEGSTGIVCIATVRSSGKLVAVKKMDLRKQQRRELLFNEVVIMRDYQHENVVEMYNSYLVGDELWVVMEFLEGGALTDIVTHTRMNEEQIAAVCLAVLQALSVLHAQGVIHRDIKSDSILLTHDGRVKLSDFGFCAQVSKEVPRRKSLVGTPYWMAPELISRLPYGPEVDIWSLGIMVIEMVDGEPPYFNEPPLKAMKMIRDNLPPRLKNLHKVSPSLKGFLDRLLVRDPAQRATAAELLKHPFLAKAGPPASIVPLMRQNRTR
UniProt Q8N5S9, sequence (whole entry, looked up): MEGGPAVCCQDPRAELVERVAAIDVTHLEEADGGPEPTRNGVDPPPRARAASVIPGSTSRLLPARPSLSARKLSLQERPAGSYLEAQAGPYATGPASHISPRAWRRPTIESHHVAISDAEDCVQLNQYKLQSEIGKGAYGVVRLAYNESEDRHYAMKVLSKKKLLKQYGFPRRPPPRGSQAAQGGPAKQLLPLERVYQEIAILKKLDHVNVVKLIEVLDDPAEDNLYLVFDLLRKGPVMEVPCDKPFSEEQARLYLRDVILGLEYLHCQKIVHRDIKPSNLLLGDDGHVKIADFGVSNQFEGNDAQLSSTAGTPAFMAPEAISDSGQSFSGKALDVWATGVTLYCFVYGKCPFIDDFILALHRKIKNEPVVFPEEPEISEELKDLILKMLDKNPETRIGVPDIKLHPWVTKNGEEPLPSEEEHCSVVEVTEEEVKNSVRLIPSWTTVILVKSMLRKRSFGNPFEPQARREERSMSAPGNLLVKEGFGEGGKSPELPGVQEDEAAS
UniProt O75914, sequence (whole entry, looked up): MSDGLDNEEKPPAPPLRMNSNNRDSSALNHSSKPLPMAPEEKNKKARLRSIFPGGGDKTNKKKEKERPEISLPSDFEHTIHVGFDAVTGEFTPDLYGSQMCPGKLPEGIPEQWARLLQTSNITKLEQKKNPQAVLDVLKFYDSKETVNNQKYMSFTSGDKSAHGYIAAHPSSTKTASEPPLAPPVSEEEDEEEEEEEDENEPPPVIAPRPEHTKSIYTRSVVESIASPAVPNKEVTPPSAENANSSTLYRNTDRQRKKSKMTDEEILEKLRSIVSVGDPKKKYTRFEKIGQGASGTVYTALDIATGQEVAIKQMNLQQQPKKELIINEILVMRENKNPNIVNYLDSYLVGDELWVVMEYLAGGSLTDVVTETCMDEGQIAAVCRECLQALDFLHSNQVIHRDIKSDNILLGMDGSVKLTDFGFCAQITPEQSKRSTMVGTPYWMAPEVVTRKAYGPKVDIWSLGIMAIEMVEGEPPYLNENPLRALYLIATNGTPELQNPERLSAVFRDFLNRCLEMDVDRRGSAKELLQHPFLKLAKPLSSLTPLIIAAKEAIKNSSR
UniProt O00506, sequence (whole entry, looked up): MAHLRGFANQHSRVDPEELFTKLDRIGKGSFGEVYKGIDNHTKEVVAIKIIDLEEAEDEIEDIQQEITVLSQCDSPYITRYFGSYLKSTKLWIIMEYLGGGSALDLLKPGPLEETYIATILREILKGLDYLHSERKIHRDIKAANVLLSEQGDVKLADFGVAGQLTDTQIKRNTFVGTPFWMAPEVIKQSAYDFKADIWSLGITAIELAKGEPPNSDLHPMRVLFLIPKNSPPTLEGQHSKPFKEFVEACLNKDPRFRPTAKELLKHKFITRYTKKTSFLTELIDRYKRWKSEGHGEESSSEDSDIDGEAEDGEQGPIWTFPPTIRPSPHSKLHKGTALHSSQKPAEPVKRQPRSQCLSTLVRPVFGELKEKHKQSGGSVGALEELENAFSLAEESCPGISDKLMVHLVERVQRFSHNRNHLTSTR
UniProt P42336, sequence (whole entry, unmodified, looked up): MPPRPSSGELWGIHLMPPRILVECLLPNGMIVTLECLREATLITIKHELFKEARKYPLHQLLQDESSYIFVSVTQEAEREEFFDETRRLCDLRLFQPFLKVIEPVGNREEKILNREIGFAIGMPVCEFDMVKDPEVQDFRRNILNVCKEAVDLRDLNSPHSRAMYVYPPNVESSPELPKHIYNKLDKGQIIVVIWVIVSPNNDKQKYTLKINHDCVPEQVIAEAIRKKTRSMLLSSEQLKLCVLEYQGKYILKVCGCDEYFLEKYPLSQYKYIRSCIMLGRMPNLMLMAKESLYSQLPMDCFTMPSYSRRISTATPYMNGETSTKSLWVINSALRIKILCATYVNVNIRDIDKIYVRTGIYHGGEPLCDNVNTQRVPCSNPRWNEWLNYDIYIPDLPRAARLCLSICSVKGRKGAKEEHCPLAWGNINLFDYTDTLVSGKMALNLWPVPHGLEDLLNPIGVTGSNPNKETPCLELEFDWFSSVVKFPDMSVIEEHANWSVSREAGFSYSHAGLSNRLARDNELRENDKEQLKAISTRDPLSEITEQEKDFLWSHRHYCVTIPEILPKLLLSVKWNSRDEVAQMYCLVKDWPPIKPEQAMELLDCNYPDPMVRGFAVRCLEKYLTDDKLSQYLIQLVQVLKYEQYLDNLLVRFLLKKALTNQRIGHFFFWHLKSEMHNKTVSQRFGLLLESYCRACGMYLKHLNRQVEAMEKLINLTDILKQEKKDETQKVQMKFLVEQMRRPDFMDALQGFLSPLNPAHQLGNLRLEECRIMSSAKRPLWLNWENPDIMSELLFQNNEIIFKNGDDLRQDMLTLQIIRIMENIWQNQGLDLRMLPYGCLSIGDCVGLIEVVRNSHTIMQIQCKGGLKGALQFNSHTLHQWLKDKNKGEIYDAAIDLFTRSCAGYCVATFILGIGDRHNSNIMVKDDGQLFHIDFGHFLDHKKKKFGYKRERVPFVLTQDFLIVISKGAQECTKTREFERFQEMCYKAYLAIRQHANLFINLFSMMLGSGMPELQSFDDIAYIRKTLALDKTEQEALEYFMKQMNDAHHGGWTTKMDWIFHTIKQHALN

Block 1
Technique: exponential regression of PRP log k'
| SMILES | logD (1,9-decadiene/water) |
| --- | --- |
| Cc1ncsc1-c1ccc(CNC(=O)[C@@H]2C[C@@H](O)CN2C(=O)[C@@H](NC(=O)CCCCCNC(=O)CC23C[C@H]4C[C@@H](C2)C[C@@H](C3)C4)C(C)(C)C)cc1 | -0.444 |
| CCCCOc1ccc(-c2ccc(C(=O)NCCCCCC(=O)N[C@H](C(=O)N3C[C@H](O)C[C@H]3C(=O)NCc3ccc(-c4scnc4C)cc3)C(C)(C)C)cc2)cc1 | 1.46 |
| CCCC(=O)OCCCCCC(=O)N[C@H](C(=O)N1C[C@H](O)C[C@H]1C(=O)NCc1ccc(-c2scnc2C)cc1)C(C)(C)C | -1.56 |
| COCC(=O)OCCCCCC(=O)N[C@H](C(=O)N1C[C@H](O)C[C@H]1C(=O)NCc1ccc(-c2scnc2C)cc1)C(C)(C)C | -3.98 |
| Cc1ncsc1-c1ccc(CNC(=O)[C@@H]2C[C@@H](O)CN2C(=O)[C@@H](NC(=O)CCCCCNC(=O)C2CCCCC2)C(C)(C)C)cc1 | -2.67 |
| CCCCOc1ccc(-c2ccc(C(=O)OCCCCCC(=O)N[C@H](C(=O)N3C[C@H](O)C[C@H]3C(=O)NCc3ccc(-c4scnc4C)cc3)C(C)(C)C)cc2)cc1 | 3.23 |

Block 2
Species: human
Sample: microsomes or S9
Tested at: 2 µM
Time: 0.5 h
| SMILES | remaining compound |
| --- | --- |
| O=C(Cn1c2ccccc2c2ncn(Cc3nc(C4CC4)no3)c(=O)c21)NC1CCCCC1 | 42.1% |
| Cc1ccc(-c2cc(C(=O)Nc3ccc4c(c3)N(C)C(=O)CO4)no2)cc1 | 27.7% |
| CC1(C)C=C(N2CCCC2=O)c2cc(C#N)ccc2O1 | 74.3% |
| Cc1nc(NCC(C(C)C)N(C)C)c2nc(C)oc2n1 (stereo not shown) | 96% |
| CC(=O)Nc1ccc(C(=O)N(Cc2cccnc2)C2(C(=O)NCc3ccccc3)CCN(C(C)=O)CC2)cc1 | 74.7% |

Block 3
SMILES: Cc1cc(-n2nc(Cc3cc(F)cc(C(F)(F)F)c3)nc2C)ccc1C(N)=O
Effect on: cell-free assay
Technique: competition with immobilised ligand
Tested at: 1 µM
| target | remaining binding [%] |
| --- | --- |
| Serine/threonine-protein kinase PAK 3 (PAK3, Homo sapiens, UniProt O75914) | 100 |
| Phosphatidylinositol 4,5-bisphosphate 3-kinase catalytic subunit alpha isoform (PIK3CA, Homo sapiens, UniProt P42336, C420R) | 93 |
| Serine/threonine-protein kinase 25 (STK25, Homo sapiens, UniProt O00506) | 89 |
| Serine/threonine-protein kinase PAK 4 (PAK4, Homo sapiens, UniProt O96013) | 100 |
| Calcium/calmodulin-dependent protein kinase kinase 1 (CAMKK1, Homo sapiens, UniProt Q8N5S9) | 100 |

Block 4
Target: Myosin light chain kinase 2, skeletal/cardiac muscle (MYLK2, Homo sapiens, UniProt Q9H1R3)
UniProt Q9H1R3, sequence (whole entry, looked up): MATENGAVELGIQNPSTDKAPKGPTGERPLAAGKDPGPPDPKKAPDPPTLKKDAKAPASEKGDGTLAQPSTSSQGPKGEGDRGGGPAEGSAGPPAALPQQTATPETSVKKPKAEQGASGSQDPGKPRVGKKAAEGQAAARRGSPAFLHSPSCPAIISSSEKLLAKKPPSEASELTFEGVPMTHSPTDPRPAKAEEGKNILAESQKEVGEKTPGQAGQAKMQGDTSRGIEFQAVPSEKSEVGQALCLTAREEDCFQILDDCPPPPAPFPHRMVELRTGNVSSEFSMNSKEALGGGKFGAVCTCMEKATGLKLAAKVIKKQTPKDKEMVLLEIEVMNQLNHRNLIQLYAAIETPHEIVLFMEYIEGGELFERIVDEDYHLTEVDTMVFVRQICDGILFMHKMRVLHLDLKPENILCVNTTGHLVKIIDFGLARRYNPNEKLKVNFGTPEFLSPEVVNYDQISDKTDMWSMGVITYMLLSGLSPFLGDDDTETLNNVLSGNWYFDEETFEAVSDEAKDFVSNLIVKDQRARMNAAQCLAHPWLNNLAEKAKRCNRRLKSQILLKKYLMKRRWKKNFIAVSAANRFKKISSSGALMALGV
Effect on: enzyme activity
Mode: inhibitor
Tested at: 0.5 µM
Baseline: control
| Compound | remaining activity [%] |
| --- | --- |
| O=C(O)c1ccc2c3c1cccc3c(=O)n1c3ccccc3nc21 | 99.6 |
| NCCNc1ncc(C(N)=O)c(Nc2cccc(C(F)(F)F)c2)n1 | 90.1 |
| Oc1ccc(-c2nc(-c3ccncc3)c(-c3ccc(F)cc3)[nH]2)cc1 | 93.5 |
| OCC(O)CCON=C1C(c2c(O)[nH]c3ccccc23)=Nc2ccccc21 (stereo not shown) | 27.3 |
| C#Cc1cccc(Nc2ncnc3cc(OCCOC)c(OCCOC)cc23)c1 | 100 |
| O=c1c2ccccc2[nH]c(=S)n1CCN1CCC(=C(c2ccc(F)cc2)c2ccc(F)cc2)CC1 | 99.9 |
| O=C1NC(=O)C(c2cn(CCCO)c3ncccc23)=C1c1cnccn1 | 81.1 |
| CCOC(=O)c1c(C)[nH]c(/C=C2\C(=O)Nc3ccccc32)c1C | 74.7 |
| Nc1ccc2ncnc(NCCc3ccc(Oc4ccccc4)cc3)c2c1 | 97.6 |
| O=C1NC(=O)C(c2cn(CCCn3ccnc3)c3ccccc23)=C1Nc1ccccc1 | 95.7 |
| COc1cc2ncnc(Nc3ccc(Oc4ccccc4)cc3)c2cc1OC | 101 |
| CO[C@H]1C[C@@H]2CC[C@@H](C)[C@@](O)(O2)C(=O)C(=O)N2CCCC[C@H]2C(=O)O[C@H]([C@H](C)C[C@@H]2CC[C@@H](O)[C@H](OC)C2)CC(=O)[C@H](C)/C=C(\C)[C@@H](O)[C@@H](OC)C(=O)[C@H](C)C[C@H](C)/C=C/C=C/C=C/1C | 103 |
| CN(C)c1ccc(C=C2C(=O)Nc3ccccc32)cc1 | 82.6 |
| O=S(=O)(c1cccc2cnccc12)N1CCCNCC1 | 99.6 |
| N#CC(C#N)=C(N)/C(C#N)=C/c1ccc(O)cc1 | 99.4 |

Repeated from above (block 3):
| target | remaining binding [%] |
| --- | --- |
| Serine/threonine-protein kinase PAK 3 (PAK3, Homo sapiens, UniProt O75914) | 100 |
| Phosphatidylinositol 4,5-bisphosphate 3-kinase catalytic subunit alpha isoform (PIK3CA, Homo sapiens, UniProt P42336, C420R) | 93 |
| Calcium/calmodulin-dependent protein kinase kinase 1 (CAMKK1, Homo sapiens, UniProt Q8N5S9) | 100 |
